Literature values, collected from citations in different studies.
Numbered parts are unrelated; values within a part may stem from several laboratories.

Study 1
Organism: Cryptosporidium parvum
Method: high-throughput screen
Tested at: concentration not given
Quantity: activity
SMILES = CN1CCN(CC/C=C2/c3ccccc3Sc3ccc(S(=O)(=O)N(C)C)cc32)CC1; result = inactive
SMILES = CC(C)(C(=O)c1cccnc1)c1cccnc1; result = inactive
SMILES = Cc1cccc(CCN2CCC(C(=O)c3ccc(NS(C)(=O)=O)cc3)CC2)n1.Cl.Cl; result = inactive

Other studies, line by line
Compound = Cc1c(Oc2ccc(F)cc2)c(OC(C)C)nn1-c1ccc(C2CC2)cn1; target or system = DHODH (human); test = cellular activity; quantity = IC50; result = 1200 nM
Compound = CC(=O)c1c(C)c2cnc(Nc3ccc(N4CCNCC4)cn3)nc2n(C2CCCC2)c1=O; test system = human recurrent Rb-positive glioblastoma; conditions = concentration not given, 6 months, clinical study; quantity = patients progressed; result = 95%
Compound = Cn1cncc1[C@@](O)(COc1ccc(C#N)cc1-c1ccc(OC(F)(F)F)cc1)c1ccc(C#N)cc1; target or system = FNTB; test = biochemical activity; quantity = IC50; result = > 100 nM
Compound = C1Cc2[nH]nc(-c3nnn[nH]3)c2C1; test system = human phase II trial; conditions = dose not given; quantity = free fatty acid level; result = decreased
Compound = Cc1ccc(-c2cnc([C@@]3(O)CC[C@H](C(=O)O)C(C)(C)C3)s2)cc1Nc1cccc(C(F)(F)F)n1; target or system = SYK (human); test = enzyme activity; quantity = IC50; result = 4700 nM
Compound = CN(C)C(=O)c1cc2cnc(Nc3ccc(N4CCNCC4)cn3)nc2n1C1CCCC1; test system = human recurrent glioblastoma, contrast-enhancing tumour; conditions = dose not given; quantity = unbound tumour concentration; result = 2.15 µmol/kg
Compound = CN(C)C(=O)Cn1cc(-c2nc([C@@](C)(c3ccc(-c4cnc(N)nc4)cc3)C3CC3)no2)cn1; target or system = ALOX5AP; test = biochemical activity; quantity = IC50; result = 1.7 nM
